Values quoted from earlier work as cited in several papers.
Lines come from different studies, so protocols differ. ± gives the spread as reported. Values after ≈ are worked out from the molar mass of the structure shown.
Chain of UniProt Q8TD19 (whole entry, looked up): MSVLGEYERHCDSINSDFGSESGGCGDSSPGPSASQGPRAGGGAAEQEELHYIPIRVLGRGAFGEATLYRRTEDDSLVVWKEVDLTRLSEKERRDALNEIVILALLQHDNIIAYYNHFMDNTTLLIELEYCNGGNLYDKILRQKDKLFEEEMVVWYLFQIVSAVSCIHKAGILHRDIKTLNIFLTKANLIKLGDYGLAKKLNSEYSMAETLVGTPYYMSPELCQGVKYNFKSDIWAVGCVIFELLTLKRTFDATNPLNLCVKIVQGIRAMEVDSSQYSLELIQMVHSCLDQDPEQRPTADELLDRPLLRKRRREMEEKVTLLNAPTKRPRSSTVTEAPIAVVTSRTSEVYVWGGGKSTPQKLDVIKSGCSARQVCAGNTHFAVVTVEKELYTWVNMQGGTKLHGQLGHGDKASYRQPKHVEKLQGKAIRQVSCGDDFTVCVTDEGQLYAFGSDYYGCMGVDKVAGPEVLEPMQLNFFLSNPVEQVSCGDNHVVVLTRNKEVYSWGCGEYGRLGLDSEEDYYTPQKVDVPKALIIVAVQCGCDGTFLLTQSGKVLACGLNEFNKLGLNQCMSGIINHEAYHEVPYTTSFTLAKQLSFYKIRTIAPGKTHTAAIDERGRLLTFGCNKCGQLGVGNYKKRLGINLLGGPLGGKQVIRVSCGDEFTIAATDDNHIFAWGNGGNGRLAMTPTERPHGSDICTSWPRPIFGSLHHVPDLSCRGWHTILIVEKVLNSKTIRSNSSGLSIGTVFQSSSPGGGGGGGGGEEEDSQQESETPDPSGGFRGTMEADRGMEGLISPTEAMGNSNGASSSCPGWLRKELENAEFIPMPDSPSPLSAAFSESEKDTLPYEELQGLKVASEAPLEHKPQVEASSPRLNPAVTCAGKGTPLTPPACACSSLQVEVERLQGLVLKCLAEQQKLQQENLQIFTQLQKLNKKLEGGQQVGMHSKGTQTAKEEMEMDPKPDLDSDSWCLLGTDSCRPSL

Structure (SMILES)	tested on	assay	system	setting	how to read	quantity	value
COCCOC(=O)C1=C(C)NC(C)=C(C(=O)OC(C)C)C1c1cccc([N+](=O)[O-])c1 (stereo not drawn)	–	–	water	–	–	solubility	< 1000 µg/mL
N#CCNC(=O)c1ccc(-c2ccnc(Nc3ccc(N4CCOCC4)cc3)n2)cc1	–	measured: compound	human, urine	oral, dose not given, single dose 14C-labelled	relative to: dose	excreted dose	0.6%
O=c1[nH]ncn1-c1ccc(N2CCN(c3ccc(OCC4COC(Cn5cncn5)(c5ccc(Cl)cc5Cl)O4)cc3)CC2)cc1 (stereo not drawn)	–	–	–	–	–	pKa (basic)	3.7
CC/C(=C(\c1ccccc1)c1ccc(OCCN(C)C)cc1)c1ccccc1	–	–	human	–	–	free Cmax	6.46 nM
CN(C)C(=O)c1cc2cnc(Nc3ccc(N4CCNCC4)cn3)nc2n1C1CCCC1	–	measured: leukopenia	advanced solid tumour or lymphoma patients	dose not given, 3 weeks on 1 week off, any grade	relative to: patients	adverse event incidence	21.6%
Cc1nn(C)cc1S(=O)(=O)NC(=O)c1ccc(-n2ccc(OCC(C)(C)C(F)(F)F)n2)nc1N1C[C@@H](C)CC1(C)C	–	–	–	–	–	logP octanol/water	6
C=CC(=O)N1CCC[C@@H](n2nc(-c3ccc(Oc4ccccc4)cc3)c3c(N)ncnc32)C1	–	–	supercritical CO2	–	–	crossover pressure	150 to 170 bar
CC(=O)O[C@@]12CO[C@@H]1C[C@H](O)[C@@]1(C)C(=O)[C@H](O)C3=C(C)[C@@H](OC(=O)[C@H](O)[C@@H](NC(=O)OC(C)(C)C)c4ccccc4)C[C@@](O)([C@@H](OC(=O)c4ccccc4)[C@H]21)C3(C)C	–	–	human	concentration not given, clinical	–	diarrhoea incidence	42%
CN[C@@H](C)C(=O)N[C@H]1CN(S(=O)(=O)c2cccc(S(=O)(=O)N3CC[C@H]4CC[C@@H](C(=O)NC(c5ccccc5)c5ccccc5)N4C(=O)[C@@H](NC(=O)[C@H](C)NC)C3)c2)CC[C@H]2CC[C@@H](C(=O)NC(c3ccccc3)c3ccccc3)N2C1=O	–	–	human	concentration not given	–	accumulation	no effect
CCCC(CCC)C(=O)O	–	–	supercritical CO2	–	–	crossover pressure	170 to 190 bar
Cc1nc(NC(=O)N2CCC[C@H]2C(N)=O)sc1-c1ccnc(C(C)(C)C(F)(F)F)c1	–	–	human	oral, 300 mg single dose, with: meal, low fat, low calorie	relative to: fasted	increase in Cmax	145%
CC(C)(O/N=C(\C(=O)N[C@@H]1C(=O)N2C(C(=O)[O-])=C(C[n+]3ccccc3)CS[C@H]12)c1csc(N)n1)C(=O)O	Klebsiella pneumoniae	–	clinical isolate RKI-No_138/16	–	–	MIC	≤ 2 µg/mL
CC1(C)O[C@@H]2[C@@H](CO[C@@]3(COS(N)(=O)=O)OC(C)(C)O[C@@H]23)O1	–	–	water	–	–	solubility	< 1000 µg/mL
CCc1cc2c(cc1CC)CC(NC[C@H](O)c1ccc(O)c3[nH]c(=O)ccc13)C2	–	–	human, plasma	inhaled, dose not given	–	Clast	0.036 nM
CC[C@H]1OC(=O)[C@H](C)[C@@H](O[C@H]2C[C@@](C)(OC)[C@@H](O)[C@H](C)O2)[C@H](C)[C@@H](O[C@@H]2O[C@H](C)C[C@H](N(C)C)[C@H]2O)[C@](C)(OC)C[C@@H](C)C(=O)[C@H](C)[C@@H](O)[C@]1(C)O	–	–	human	–	–	free Cmax	1730 nM
Cn1cncc1-c1c(F)cncc1NC(=O)c1c(N)nn2cc(F)cnc12	–	–	patients with advanced solid tumours	dose not given, monotherapy overall	–	grade ≥3 anaemia incidence	36%
CNCc1cc(-c2ccccc2F)n(S(=O)(=O)c2cccnc2)c1	–	–	human, plasma	10 mg multiple dose, observed clinical data	–	Tmax	1.5 h
N=C(N)c1ncn([C@@H]2O[C@H](CO)[C@@H](O)[C@H]2O)n1	–	–	human	600 mg	–	oral bioavailability	66%
[Na+].[Na+].[O-][N+]([O-])=NO	–	–	–	pH 7.4, 37 °C	–	HNO release half-life	2.5 min
OC(Cn1cncn1)(Cn1cncn1)c1ccc(F)cc1F	–	–	human	–	–	Vd	0.73 L/kg
NC(=O)c1cccnc1	–	–	adults	–	–	tolerable upper intake level	12.5 mg/kg bw/day
CNC(C)C1CCC(N)C(OC2C(N)CC(N)C(OC3OCC(C)(O)C(NC)C3O)C2O)O1 (stereo not drawn)	Acinetobacter baumannii	–	clinical isolate RKI-No_32/16	–	–	MIC	> 8 µg/mL
C[Si](C)(C)O[Si](C)(C)O[Si](C)(C)C	–	–	1-octanol/water	25 °C	–	log KOW	5.35
CN[C@H]1CC[C@@H](c2ccc(Cl)c(Cl)c2)c2ccccc21	–	–	plasma	–	–	free Cmax	1.25 nM
C=CC(=O)N1CCC([C@@H]2CCNc3c(C(N)=O)c(-c4ccc(Oc5ccccc5)cc4)nn32)CC1	–	–	human patients	oral, 80 mg once daily, day 8	–	Cmax	179 ± 80 ng/mL
COCCc1ccc(OCC(O)CNC(C)C)cc1 (stereo not drawn)	–	–	human fasted	200 mg multiple doses, day 13, mean	–	AUC(0-24 h)	1860 ng·h/mL

Structure (SMILES)	tested on	assay	system	setting	how to read	quantity	value
CCN1CCN(Cc2ccc(Nc3ncc(F)c(-c4cc(F)c5nc(C)n(C(C)C)c5c4)n3)nc2)CC1	–	–	healthy human subjects	dose not given, 24 h post-dose	relative to: baseline, maximum mean	serum creatinine increase	20 to 35%
COC(=O)N[C@@H](C)CNc1nccc(-c2cn(C(C)C)nc2-c2cc(Cl)cc(NS(C)(=O)=O)c2F)n1	–	–	human, urine	dose not given	–	unchanged drug excreted	2%
Nc1nc(=O)n([C@@H]2C=C[C@H](CO)O2)cc1F	–	–	human	10 mg	–	oral bioavailability	32%
Cc1cc(-c2nccc3c2ccn3CC(=O)Nc2ccc(-c3cnccn3)cn2)ccn1	–	–	dog	30 mg/kg/day, 1 month, repeat dosing	–	Cmax, total	6400 nM
Cc1nc(-c2ccc(OCC(C)C)c(C#N)c2)sc1C(=O)O	–	–	plasma	concentration not given, total, steady state	–	Cmax	16800 nM
C=CC(=O)NC1CCN(c2ncc3ncnc(Nc4ccc(Oc5ccc6c(c5)ncn6C)c(C)c4)c3n2)CC1	–	–	human	oral microdose tablet, dose-normalised geometric mean	relative to: intravenous	absolute bioavailability	76.2%
Cc1ccc(NC(=O)c2ccc(CN3CCN(C)CC3)cc2)cc1Nc1nccc(-c2cncc(-c3oncc3C)c2)n1	–	–	mouse	100 mg/kg/day, steady state	–	AUC(0-inf)	37800 ng·h/mL
CC[C@H](C)[C@H](NC(=O)[C@H](Cc1ccccc1)NC(=O)[C@H](CCC(=O)O)NC(=O)[C@H](CCCCNC(=O)COCCOCCNC(=O)COCCOCCNC(=O)CC[C@H](NC(=O)CCCCCCCCCCCCCCCCC(=O)O)C(=O)O)NC(=O)[C@H](C)NC(=O)[C@H](C)NC(=O)[C@H](CCC(N)=O)NC(=O)CNC(=O)[C@H](CCC(=O)O)NC(=O)[C@H](CC(C)C)NC(=O)[C@H](Cc1ccc(O)cc1)NC(=O)[C@H](CO)NC(=O)[C@H](CO)NC(=O)[C@@H](NC(=O)[C@H](CC(=O)O)NC(=O)[C@H](CO)NC(=O)[C@@H](NC(=O)[C@H](Cc1ccccc1)NC(=O)[C@@H](NC(=O)CNC(=O)[C@H](CCC(=O)O)NC(=O)C(C)(C)NC(=O)[C@@H](N)Cc1cnc[nH]1)[C@@H](C)O)[C@@H](C)O)C(C)C)C(=O)N[C@@H](C)C(=O)N[C@@H](Cc1c[nH]c2ccccc12)C(=O)N[C@@H](CC(C)C)C(=O)N[C@H](C(=O)N[C@@H](CCCNC(=N)N)C(=O)NCC(=O)N[C@@H](CCCNC(=N)N)C(=O)NCC(=O)O)C(C)C	–	–	human, 85 kg reference	dose not given	–	central volume of distribution	3.59 L
N#C[C@@]1(c2ccc3c(N)ncnn23)O[C@H](CO)[C@@H](O)[C@H]1O	–	–	dog, plasma	intravenous, 2 mg/kg, 2 h, solution	–	plasma concentration	949 ng/mL
Cc1ccc(Nc2c(F)cccc2Cl)c(CC(=O)O)c1	–	–	water	–	–	solubility	< 1000 µg/mL
O=C1Nc2ccc(Cl)cc2[C@@](C#CC2CC2)(C(F)(F)F)O1	–	–	human	dose not given	–	volume of distribution	4 to 7 L/kg
CNC(=O)c1c(C)oc2cc(Oc3ncnc4cc(OC)c(OC)cc34)ccc12	–	–	human	phase I mass balance	–	dose fraction metabolised to M11	~7.25%
Cc1c(OCC(F)(F)F)ccnc1C[S+]([O-])c1nc2ccccc2[nH]1 (stereo not drawn)	–	–	plasma	concentration not given, total, steady state	–	Cmax	670 nM
CNC(=O)c1c(C)oc2cc(Oc3ncnc4cc(OC)c(OC)cc34)ccc12	–	–	urine	5 mg radiolabelled, time not given	–	unchanged dose recovered	0.5%
Nc1nc(NC2CC2)c2ncn([C@H]3C=C[C@@H](CO)C3)c2n1	–	–	human	300 mg twice daily	–	oral bioavailability	83%
Cc1ccc(C(=O)c2cc(O)c(O)c([N+](=O)[O-])c2)cc1	–	–	water	–	–	solubility	< 1000 µg/mL
CNC(=O)c1ccc(N2C(=S)N(c3ccc(C#N)c(C(F)(F)F)c3)C(=O)C2(C)C)cc1F	–	measured: fatigue	post-docetaxel patients	dose not given, AFFIRM trial	–	adverse event incidence	34%
Cn1c(Cn2ccc(C(F)(F)F)c(Oc3cc(Cl)cc(C#N)c3)c2=O)n[nH]c1=O	–	–	human subjects	dose not given, up to 48 weeks	–	Nausea incidence	10.7%
Oc1c(I)cc(Cl)c2cccnc12	–	–	water	–	–	solubility	< 1000 µg/mL
NC(=O)c1ncn([C@@H]2O[C@H](CO)[C@@H](O)[C@H]2O)n1	–	–	human	–	–	free Cmax	27900 nM
Nc1cc(C(F)(F)F)c(-c2nc(N3CCOCC3)nc(N3CCOCC3)n2)cn1	Serine/threonine-protein kinase Nek9 (NEK9, Homo sapiens, UniProt Q8TD19)	enzyme activity	–	10 µM	relative to: untreated	remaining activity	100%
COc1cc2c(Oc3ccc4[nH]c(C)cc4c3F)ccnc2cc1OCC1(N)CC1	–	–	human, fasting	5 mg	–	MRT(0-inf)	162 ± 41.3 h
C[C@@H]1CCO[C@H]2Cn3cc(C(=O)NCc4ccc(F)cc4F)c(=O)c(O)c3C(=O)N12	–	–	human, plasma	50 mg daily	relative to: normal renal function, lower	trough concentration change	85%
CCc1cc(/C(C)=N/OCc2ccc(C3CCCCC3)c(C(F)(F)F)c2)ccc1CN1CC(C(=O)O)C1	–	population PK	human, CYP2C9*2/*2	–	–	clearance	2.5 L/h
C[C@]12CC[C@H](O)CC1=CC[C@@H]1[C@@H]2CC[C@]2(C)C(c3cccnc3)=CC[C@@H]12	–	–	FaSSIF	literature value	–	solubility	7.83 µg/mL (≈ 22.4 µM)

Some of these lines once more:
Structure (SMILES)	tested on	assay	system	setting	how to read	quantity	value
CNC(C)C1CCC(N)C(OC2C(N)CC(N)C(OC3OCC(C)(O)C(NC)C3O)C2O)O1 (stereo not drawn)	Acinetobacter baumannii	–	clinical isolate RKI-No_32/16	–	–	MIC	> 8 µg/mL
CC[C@H](C)[C@H](NC(=O)[C@H](Cc1ccccc1)NC(=O)[C@H](CCC(=O)O)NC(=O)[C@H](CCCCNC(=O)COCCOCCNC(=O)COCCOCCNC(=O)CC[C@H](NC(=O)CCCCCCCCCCCCCCCCC(=O)O)C(=O)O)NC(=O)[C@H](C)NC(=O)[C@H](C)NC(=O)[C@H](CCC(N)=O)NC(=O)CNC(=O)[C@H](CCC(=O)O)NC(=O)[C@H](CC(C)C)NC(=O)[C@H](Cc1ccc(O)cc1)NC(=O)[C@H](CO)NC(=O)[C@H](CO)NC(=O)[C@@H](NC(=O)[C@H](CC(=O)O)NC(=O)[C@H](CO)NC(=O)[C@@H](NC(=O)[C@H](Cc1ccccc1)NC(=O)[C@@H](NC(=O)CNC(=O)[C@H](CCC(=O)O)NC(=O)C(C)(C)NC(=O)[C@@H](N)Cc1cnc[nH]1)[C@@H](C)O)[C@@H](C)O)C(C)C)C(=O)N[C@@H](C)C(=O)N[C@@H](Cc1c[nH]c2ccccc12)C(=O)N[C@@H](CC(C)C)C(=O)N[C@H](C(=O)N[C@@H](CCCNC(=N)N)C(=O)NCC(=O)N[C@@H](CCCNC(=N)N)C(=O)NCC(=O)O)C(C)C	–	–	human, 85 kg reference	dose not given	–	central volume of distribution	3.59 L
Cn1cncc1-c1c(F)cncc1NC(=O)c1c(N)nn2cc(F)cnc12	–	–	patients with advanced solid tumours	dose not given, monotherapy overall	–	grade ≥3 anaemia incidence	36%
O=c1[nH]ncn1-c1ccc(N2CCN(c3ccc(OCC4COC(Cn5cncn5)(c5ccc(Cl)cc5Cl)O4)cc3)CC2)cc1 (stereo not drawn)	–	–	–	–	–	pKa (basic)	3.7
